# Published values gathered from unrelated publications.
# Numbered parts are unrelated; each lists some results of a single study. Positions count from the first letter of the parent shown.

# Set 1 — method: RNA Bind-n-Seq; form: RNA; sample: in vitro; tested at: 1 µM; notes: whole 134-nt RNA, ends assumed; added: 150 mM KCl; baseline: input library; direction: higher = stronger binding
# Target: Ras GTPase-activating protein-binding protein 1, RRM domain (G3BP1, Homo sapiens, UniProt Q13283)
# Chain of UniProt Q13283 (whole entry, looked up): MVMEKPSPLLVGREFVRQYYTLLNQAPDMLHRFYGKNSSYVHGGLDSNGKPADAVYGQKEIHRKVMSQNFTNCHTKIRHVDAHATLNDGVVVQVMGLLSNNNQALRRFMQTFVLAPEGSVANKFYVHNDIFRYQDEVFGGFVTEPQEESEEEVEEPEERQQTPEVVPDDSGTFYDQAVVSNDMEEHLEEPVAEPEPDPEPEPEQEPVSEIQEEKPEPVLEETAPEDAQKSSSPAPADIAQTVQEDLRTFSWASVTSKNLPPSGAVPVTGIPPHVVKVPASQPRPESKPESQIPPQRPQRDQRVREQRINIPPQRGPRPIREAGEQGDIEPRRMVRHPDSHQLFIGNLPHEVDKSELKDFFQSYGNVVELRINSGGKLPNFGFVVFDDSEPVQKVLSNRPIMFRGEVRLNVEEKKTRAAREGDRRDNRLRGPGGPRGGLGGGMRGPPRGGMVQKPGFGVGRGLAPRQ
# Constant ends, left off below: GGGAGUUCUACAGUCCGACGAUC … UGGAAUUCUCGGGUGUCAAGG
Sequence,log2 enrichment
AAGUCCUGUGCUACACAUCGUAUGUACCGAAUCGGGAGGGUUUGGGUUUUUUUGGGAAAGUAUUAUGUUACGCCGUUCGGAUCUGCACUU,0.387
CUCAAGUCCUGUGCUACACAUCGUAUGUACCGAAUCGGGGAAGGAAGGGGAAGGAAAGUAUUAUGUUACGCCGUUCGGAUCUGCACUUCC,-0.204
UAACUUUAGAGGAGGAUCUGAUGGAUAUGGCAGUGGACGUGGAUUUGGGGAUGGCUAUAAUGGGUAUGGAGGAUGACCUGGAGGUGGCAA,-0.45
UGGGAGGUGGAUUUUGUUUAUUUUUUUAGCUCAUUUCCAGGAGUGGGAAUUUUUUUUUAAUAUGUGUCAUGAAUAAAGUUGUUUUUGAAA,2.42
AACACUCAAACCACCAUCAAGCUUUUCCAGGAAUGCUGUCCUCAUUCCACUGACAGAGUUGUUCUUAUUGGAGGAAAACCCGAUAGGGUU,-0.168

# Set 2 — target: CCNB2, cyclin fold, Cln2 fusion (human); method: yeast growth competition, sequencing; sample: yeast; notes: weak parent motif; baseline: not given; direction: higher = stronger binding
# Starting sequence: CDC6 docking peptide (human); TLKGRRLVFDNQL
Substitution,normalised enrichment score
TLQGRRLVFDNQL [K3Q],0.286
TLKGRRLVEDNQL [F9E],0.401
TLKGRRLVFDNKL [Q12K],0.199
TLKGRFLVFDNQL [R6F],-0.585
TLKGRRVVFDNQL [L7V],0.232

# Set 3 — method: protein-binding microarray; form: double-stranded DNA, one strand shown; sample: in vitro; tested at: 940 nM top; notes: 60-bp whole probe; added: salmon DNA 0.4 mg/ml; baseline: random background probes; direction: higher = stronger binding
# Target: Interferon regulatory factor 5, full length, phosphomimetic (IRF5, Homo sapiens, UniProt Q13568-2, residues 1-514, S451D/S453D/S456D/S462D)
Sequence,fitted relative affinity
GCCTAGCACGACGCTTTCCTTTCCCTGACGTGCTAGGTCTTGATTCGCTTGACGCTGCTG,1.2 z-score
GCCTAGCACTTGGGTATCGGGTTTCGGTTAGTGCTAGTCTTGATTCGCTTGACGCTGCTG,7.58 z-score
GCCTAGCACTCACTGCTACCCTTTGAAACTGTGCTAGTCTTGATTCGCTTGACGCTGCTG,0.612 z-score
GCCTAGCACGACAGTTTCGACTATCGGGACGTGCTAGTCTTGATTCGCTTGACGCTGCTG,9.52 z-score

# Other studies, line by line
Substance,target,test,system,setting,scale,quantity,result
"PhoQ, residues 284 288 289 292 302 303 ALSMDL","PhoP, residues 12 14 15 18 19 SPWRL (Escherichia coli, UniProt P23836)","Sort-seq, measured: YFP reporter",E. coli,"PhoQ-PhoP variant library, added: 10 µM Mg2+","baseline: high Mg2+ state, higher = stronger signaling",fold induction,9.45

# A few entries again (set 2):
Substitution,normalised enrichment score
TLKGRRLVEDNQL [F9E],0.401
